Results of several laboratories.
A part holds a random share of what one study measured.

Sample 1
Target: Centromere-binding protein 1, full length, His-tagged (CBF1, Saccharomyces cerevisiae, UniProt P17106, residues 1-351)
UniProt P17106, sequence (whole entry, looked up): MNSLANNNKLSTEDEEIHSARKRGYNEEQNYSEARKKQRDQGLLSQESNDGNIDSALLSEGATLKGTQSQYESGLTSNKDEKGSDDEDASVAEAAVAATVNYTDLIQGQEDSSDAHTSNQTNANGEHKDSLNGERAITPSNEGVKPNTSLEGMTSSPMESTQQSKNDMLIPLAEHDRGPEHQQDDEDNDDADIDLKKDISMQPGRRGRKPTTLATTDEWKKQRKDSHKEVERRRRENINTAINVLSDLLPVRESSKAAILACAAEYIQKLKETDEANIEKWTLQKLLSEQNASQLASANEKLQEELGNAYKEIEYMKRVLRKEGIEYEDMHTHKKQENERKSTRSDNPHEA
Method: competition protein-binding microarray
Form: double-stranded DNA, one strand shown
Medium: in vitro
Tested at: 2 µM
Setting: whole 60-bp probe, lowest competitor level
With: Pho4 competitor, 0.05 µM
Direction: higher = stronger binding
Quantity: fluorescence intensity
Oligonucleotide = TCCAACAAATAAAGTTCCGTGATGGTTTAATGGTCAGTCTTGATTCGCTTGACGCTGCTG; value = 94.1 a.u.
Oligonucleotide = AGCCCCTATAGTAGCTTCGTGATGGGGTAGAACTTCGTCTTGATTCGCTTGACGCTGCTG; value = 55.7 a.u.
Oligonucleotide = CCTTTAAAGGCCCACCACGTGGCTGCGCGGCCAGCCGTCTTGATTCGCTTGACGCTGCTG; value = 737 a.u.
Oligonucleotide = AAATTACTAAGTTGTGGCGTGGGTGACGCCGTATGAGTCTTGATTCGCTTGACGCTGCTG; value = 61.5 a.u.
Oligonucleotide = ACCCACATCACCCCATACATGACAATCTTCTTGCAAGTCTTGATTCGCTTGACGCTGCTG; value = 68.3 a.u.

Sample 2
Target: Interferon regulatory factor 5, full length, phosphomimetic (IRF5, Homo sapiens, UniProt Q13568-2, residues 1-514, S451D/S453D/S456D/S462D)
Method: protein-binding microarray
Form: double-stranded DNA, one strand shown
Medium: in vitro
Tested at: 940 nM top
Setting: 60-bp whole probe
With: salmon DNA 0.4 mg/ml
Reference: random background probes
Direction: higher = stronger binding
Quantity: fitted relative affinity
All sequences stand within: GCCTAGCACT … GTCTTGATTCGCTTGACGCTGCTG
Oligonucleotide = TAGGTTTGGGACTGGGTTAGTGCTAG; value = -0.0886 z-score
Oligonucleotide = TAGAACTGCGTCTCGATTAGTGCTAG; value = 0.429 z-score
Oligonucleotide = TAGAACTGGGGGATCGATTAGTGCTA; value = 1.44 z-score
Oligonucleotide = TAGATATCAGTATTGATTAGTGCTAG; value = 0.198 z-score
Oligonucleotide = TAGGTTTCGGGTATCGGTCAGTGCTA; value = 11.2 z-score
Oligonucleotide = TACGTTTCGACTATCGGTTAGTGCTA; value = 5.62 z-score
Oligonucleotide = CATTTTCAATTTTTGCACTGTGCTAG; value = 1.28 z-score

Sample 3
Target: Max-binding protein MNT, bHLH-zipper, MAX partner unstated (MNT, Homo sapiens, UniProt Q99583, residues 220-300)
Method: protein-binding microarray
Form: double-stranded DNA, one strand shown
Medium: in vitro
Tested at: not given
Setting: k-mer, scored over probes, only values ≥0.25
Direction: higher = stronger binding
Quantity: E-score
Residues (chain): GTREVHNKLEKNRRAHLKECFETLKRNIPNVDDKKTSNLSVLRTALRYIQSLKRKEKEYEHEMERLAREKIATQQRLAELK
Oligonucleotide = CCCGCCCC; value = 0.409
Oligonucleotide = CGTGTTTA; value = 0.346
Oligonucleotide = GCATGGAA; value = 0.346
Oligonucleotide = ACATGCGG; value = 0.446

Further values, each from its own experiment
Substance = PhoQ, residues 284 288 289 292 302 303 SCEHLI; target = PhoP, residues 12 14 15 18 19 AGCRL (Escherichia coli, UniProt P23836); assay = Sort-seq, measured: YFP reporter; test system = E. coli; setting = PhoQ-PhoP variant library, with: 10 µM Mg2+; how to read = reference: high Mg2+ state, higher = stronger signaling; quantity = fold induction; value = 12.1
